Results collected from several papers.
Compare with care: the assays were run in different laboratories. Numbers after ± are the reported error.

| SMILES | target | test | system | conditions | how to read | quantity | value |
| --- | --- | --- | --- | --- | --- | --- | --- |
| CN1CCN(CC(=O)N2N=C3/C(=C/c4ccccc4)CCCC3C2c2ccccc2)CC1 (mixture of isomers) | ALOX15 (Homo sapiens, UniProt P16050) | activator | – | 10 µM, added: arachidonic acid 10 µM | relative to: activator 0 µM | enzyme activity | 167% |
| CCc1nc2cc3ccccc3cc2cc1C(=O)N1CCC[C@H]1C(=O)N[C@@H](CCC/C=C/CCC[C@H](NC(=O)[C@@H]1CCCN1C(=O)c1cc2cc3ccccc3cc2nc1CC)C(=O)N[C@@H](CCCCN)C(=O)NCCCN)C(=O)N[C@@H](CCCCN)C(=O)NCCCN | (CUG)4 RNA | SPR | – | – | – | residence time | 806 s |
| COc1ccc(C(SCC(N)C(=O)O)(c2ccccc2)c2ccccc2)cc1 (stereo not shown) | Kinesin-like protein KIF11, motor domain (KIF11, Homo sapiens, UniProt P52732) | ITC | – | concentration not given, 25 °C | – | binding stoichiometry | 0.7 ± 0.003 |
| CCCCOc1ccc(C(=O)OCCN2CC=CCC2)cc1 | CHRM4 (Homo sapiens, UniProt P08173) | recovery of [3H]NMS binding after washing | membranes | 100 µM | – | dissociation half-time | 0.4 ± 0.1 h |
| CCC(NC(=O)C(CC(C)C)NC(=O)CCc1ccccc1)C(=O)C(=O)NCc1cc(F)cc(OC)c1 (stereo not shown) | Calpain-2 catalytic subunit (Capn2, Mus musculus, UniProt O08529) | brain enzyme activity | mouse, controlled cortical impact TBI, brain | intraperitoneal, 0.1 or 1.0 mg/kg, 24 h after TBI | – | enzyme activity | no effect |
| CNc1ccccc1C(=O)O[C@H]1C[C@H](n2cnc3c(N)ncnc32)O[C@@H]1COP(=O)(O)OP(=O)(O)O | Unconventional myosin-Va (Gallus gallus, UniProt Q02440, D297C/G292C/I296C/S293C/V295G) | van't Hoff analysis | – | added: 10 mM Mg2+ | – | ΔG of pocket step | 1 ± 0.6 kcal/mol |
| CNc1nc2c(c(=O)[nH]1)[n+](C)cn2[C@@H]1O[C@H](COP(=O)(O)OP(=O)(O)OP(=O)(O)OC[C@H]2O[C@@H](n3cnc4c(=O)[nH]c(N)nc43)[C@H](O)[C@@H]2O)[C@@H](O)[C@H]1O | DCPS (Homo sapiens, UniProt Q96C86) | decapping, substrate, HPLC | – | concentration not given | – | initial hydrolysis rate | 1.91 ± 0.18 µM/min |
| O=C(Nc1ccc(N2C(=O)c3ccc(F)cc3C2=O)c(Cl)c1)c1ncccc1Cl | GRM1 (Homo sapiens, UniProt Q13255) | calcium signal, positive allosteric modulator | T-REx-293 | – | – | Emax | 128% |
| COc1ccc(CNc2nc3c(c(=O)[nH]2)[n+](C)cn3C2OC(COP(=O)(O)OP(=O)([O-])OP(=O)(O)OCC3OC(n4cnc5c(=O)[nH]c(N)nc54)C(O)C3O)C(O)C2O)cc1 (stereo not shown) | NUDT16 (Homo sapiens, UniProt Q96DE0) | decapping, substrate | capped RNA transcribed by SP6 polymerase | concentration not given, 30 min | – | cap hydrolysis | 26.1% |
| CCCC[C@H](NC(=O)[C@H](CCCCN)NC(=O)[C@H](CCCCN)NC(=O)[C@H](CCCNC(=N)N)NC(=O)[C@H](CCCNC(=N)N)NC(=O)[C@H](CC(N)=O)NC(C)=O)C(=O)N1CCC[C@H]1C(=O)N[C@@H](CCN1C(=O)c2ccc(N(C)C)cc2C1=O)C(=O)N[C@H](C(=O)N[C@@H](CCC(=O)O)C(=O)N[C@@H](CO)C(=O)N[C@@H](CC(=O)O)C(=O)N[C@H](C(=O)O)C(C)C)[C@@H](C)CC | Disks large homolog 4, PDZ1-2 domains (Homo sapiens, UniProt P78352) | PDZ domain binding, fluorescence emission intensity | PSD-95 PDZ1-2 tandem construct | 4-DMAP-Dab at position -5 | relative to: probe without PDZ domain | relative fluorescence increase | 8.6 |
| O=P(O)(O)O[C@@H]1[C@@H](O)[C@H](O)[C@H](O)[C@H](O)[C@H]1OP(=O)(O)O | Inositol 1,4,5-trisphosphate-gated calcium channel ITPR1, IP3-binding core (Itpr1, Rattus norvegicus, UniProt P29994, R504Q) | binding, 3H-IP3 competition | – | IP3-binding core IBC^R504Q | – | Hill coefficient | 1.2 ± 0.4 |
| CC(=N)NCc1cccc(CN)c1 | Nitric oxide synthase 3 (Rattus norvegicus, UniProt Q62600) | ACh-evoked cGMP accumulation | rat aortic rings | – | – | Hill slope | 0.8 ± 0.1 |
| COC(=O)c1cnc(-c2cnccn2)cc1C(=O)OC.COC(=O)c1cnc(-c2cnccn2)cc1C(=O)OC.O.O.O.O=S(=O)([O-])C(F)(F)F.O=S(=O)([O-])C(F)(F)F.[Cu+2] | Albumin (ALB, Bos taurus, UniProt P02769) | fluorescence quenching | – | – | – | binding constant | 581000 M⁻¹ |

Repeated from above:
| SMILES | target | test | system | conditions | how to read | quantity | value |
| --- | --- | --- | --- | --- | --- | --- | --- |
| O=C(Nc1ccc(N2C(=O)c3ccc(F)cc3C2=O)c(Cl)c1)c1ncccc1Cl | GRM1 (Homo sapiens, UniProt Q13255) | calcium signal, positive allosteric modulator | T-REx-293 | – | – | Emax | 128% |
